Experimental data gathered from unrelated publications.
± gives the spread as reported.
ADRA2C: Alpha-2C adrenergic receptor (ADRA2C, Homo sapiens, UniProt P18825)
Chain of UniProt P18825 (whole entry, looked up): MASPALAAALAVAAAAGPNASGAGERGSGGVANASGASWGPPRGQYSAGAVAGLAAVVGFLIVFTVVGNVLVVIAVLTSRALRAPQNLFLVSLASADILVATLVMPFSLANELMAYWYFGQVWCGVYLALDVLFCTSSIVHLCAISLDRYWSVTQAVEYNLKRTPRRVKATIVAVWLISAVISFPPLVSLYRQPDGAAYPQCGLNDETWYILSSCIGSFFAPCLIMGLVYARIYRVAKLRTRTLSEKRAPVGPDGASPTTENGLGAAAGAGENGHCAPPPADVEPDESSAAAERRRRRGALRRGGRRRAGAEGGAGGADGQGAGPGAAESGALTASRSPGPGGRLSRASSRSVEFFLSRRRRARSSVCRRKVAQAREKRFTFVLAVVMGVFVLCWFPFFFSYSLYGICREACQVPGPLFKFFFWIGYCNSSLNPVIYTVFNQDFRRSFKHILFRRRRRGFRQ
HDAC1: Histone deacetylase 1 (HDAC1, Homo sapiens, UniProt Q13547)
Chain of UniProt Q13547 (whole entry, looked up): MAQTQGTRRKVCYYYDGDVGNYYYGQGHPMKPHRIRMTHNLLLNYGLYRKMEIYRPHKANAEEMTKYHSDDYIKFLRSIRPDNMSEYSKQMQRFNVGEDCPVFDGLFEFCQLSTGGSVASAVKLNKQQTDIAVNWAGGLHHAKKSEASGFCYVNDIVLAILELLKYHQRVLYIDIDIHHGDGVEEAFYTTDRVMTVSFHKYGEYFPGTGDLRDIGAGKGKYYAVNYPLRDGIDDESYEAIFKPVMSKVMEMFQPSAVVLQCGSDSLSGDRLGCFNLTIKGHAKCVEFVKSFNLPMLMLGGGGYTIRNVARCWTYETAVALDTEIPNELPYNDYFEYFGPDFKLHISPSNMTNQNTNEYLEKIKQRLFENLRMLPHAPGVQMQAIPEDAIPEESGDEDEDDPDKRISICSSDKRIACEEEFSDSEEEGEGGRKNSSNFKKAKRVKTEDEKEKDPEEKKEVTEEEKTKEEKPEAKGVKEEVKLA
ACHE: Acetylcholinesterase (ACHE, Homo sapiens, UniProt P22303)
Chain of UniProt P22303 (whole entry, looked up): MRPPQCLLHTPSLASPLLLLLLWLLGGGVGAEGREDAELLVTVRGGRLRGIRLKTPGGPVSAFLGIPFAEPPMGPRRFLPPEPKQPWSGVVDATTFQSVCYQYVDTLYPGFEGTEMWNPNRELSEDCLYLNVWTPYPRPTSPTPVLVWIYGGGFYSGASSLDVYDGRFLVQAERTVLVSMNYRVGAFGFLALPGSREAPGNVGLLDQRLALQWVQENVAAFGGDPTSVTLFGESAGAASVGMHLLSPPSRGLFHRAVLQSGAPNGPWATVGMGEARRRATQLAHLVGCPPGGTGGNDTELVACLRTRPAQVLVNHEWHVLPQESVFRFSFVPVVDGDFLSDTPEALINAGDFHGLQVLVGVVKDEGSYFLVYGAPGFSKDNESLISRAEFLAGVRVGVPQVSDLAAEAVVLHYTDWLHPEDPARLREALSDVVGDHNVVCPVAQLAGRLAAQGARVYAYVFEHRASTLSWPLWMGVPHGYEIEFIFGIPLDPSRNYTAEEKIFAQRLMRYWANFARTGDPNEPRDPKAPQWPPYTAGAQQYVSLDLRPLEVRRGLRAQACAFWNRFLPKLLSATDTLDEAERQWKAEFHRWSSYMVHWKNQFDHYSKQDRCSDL
lacZ: Beta-galactosidase (lacZ, Escherichia coli K-12, UniProt P00722)
Chain of UniProt P00722 (whole entry, looked up): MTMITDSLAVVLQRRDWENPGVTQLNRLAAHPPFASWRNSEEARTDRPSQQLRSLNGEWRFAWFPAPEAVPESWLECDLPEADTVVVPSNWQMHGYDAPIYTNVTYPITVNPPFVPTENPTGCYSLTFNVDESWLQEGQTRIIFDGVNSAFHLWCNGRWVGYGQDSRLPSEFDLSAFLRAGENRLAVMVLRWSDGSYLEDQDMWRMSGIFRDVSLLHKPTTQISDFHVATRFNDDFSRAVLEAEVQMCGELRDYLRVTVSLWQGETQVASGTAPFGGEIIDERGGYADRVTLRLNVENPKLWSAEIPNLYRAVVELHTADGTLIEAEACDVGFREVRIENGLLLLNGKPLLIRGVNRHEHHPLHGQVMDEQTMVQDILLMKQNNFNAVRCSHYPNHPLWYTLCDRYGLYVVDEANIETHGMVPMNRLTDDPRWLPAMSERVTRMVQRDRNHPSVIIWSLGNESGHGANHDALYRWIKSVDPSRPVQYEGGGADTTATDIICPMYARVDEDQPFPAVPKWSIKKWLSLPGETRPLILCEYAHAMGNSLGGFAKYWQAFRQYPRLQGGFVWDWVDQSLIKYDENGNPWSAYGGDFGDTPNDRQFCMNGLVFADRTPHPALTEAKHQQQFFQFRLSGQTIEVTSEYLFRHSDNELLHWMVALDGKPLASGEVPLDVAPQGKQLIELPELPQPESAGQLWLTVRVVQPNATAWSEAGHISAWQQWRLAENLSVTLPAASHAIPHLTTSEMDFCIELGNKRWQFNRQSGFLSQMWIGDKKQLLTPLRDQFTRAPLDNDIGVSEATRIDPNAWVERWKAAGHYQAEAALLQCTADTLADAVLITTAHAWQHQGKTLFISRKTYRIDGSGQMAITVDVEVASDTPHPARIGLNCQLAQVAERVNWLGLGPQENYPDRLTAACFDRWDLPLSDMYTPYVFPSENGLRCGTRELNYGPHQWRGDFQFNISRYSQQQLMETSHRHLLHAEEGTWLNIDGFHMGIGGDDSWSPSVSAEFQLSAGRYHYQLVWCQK
BCHE: Cholinesterase (BCHE, Equus caballus, UniProt P81908)
Chain of UniProt P81908 (whole entry, looked up): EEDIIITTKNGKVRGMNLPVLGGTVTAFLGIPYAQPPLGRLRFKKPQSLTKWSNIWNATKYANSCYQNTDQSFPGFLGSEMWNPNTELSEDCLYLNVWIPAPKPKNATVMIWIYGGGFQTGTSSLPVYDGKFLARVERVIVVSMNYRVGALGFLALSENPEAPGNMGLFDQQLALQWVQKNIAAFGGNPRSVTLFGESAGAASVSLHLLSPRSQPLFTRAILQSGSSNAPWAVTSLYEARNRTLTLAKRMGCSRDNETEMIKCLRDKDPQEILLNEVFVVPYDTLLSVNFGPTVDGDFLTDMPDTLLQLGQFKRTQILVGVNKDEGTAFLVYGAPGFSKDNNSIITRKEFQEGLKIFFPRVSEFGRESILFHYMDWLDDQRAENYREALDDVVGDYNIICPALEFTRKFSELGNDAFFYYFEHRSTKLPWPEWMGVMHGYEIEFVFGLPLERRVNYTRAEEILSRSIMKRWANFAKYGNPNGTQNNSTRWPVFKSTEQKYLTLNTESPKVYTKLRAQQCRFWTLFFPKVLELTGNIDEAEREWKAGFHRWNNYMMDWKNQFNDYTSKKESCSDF
HTR2C: 5-hydroxytryptamine receptor 2C (HTR2C, Homo sapiens, UniProt P28335)
Chain of UniProt P28335 (whole entry, looked up): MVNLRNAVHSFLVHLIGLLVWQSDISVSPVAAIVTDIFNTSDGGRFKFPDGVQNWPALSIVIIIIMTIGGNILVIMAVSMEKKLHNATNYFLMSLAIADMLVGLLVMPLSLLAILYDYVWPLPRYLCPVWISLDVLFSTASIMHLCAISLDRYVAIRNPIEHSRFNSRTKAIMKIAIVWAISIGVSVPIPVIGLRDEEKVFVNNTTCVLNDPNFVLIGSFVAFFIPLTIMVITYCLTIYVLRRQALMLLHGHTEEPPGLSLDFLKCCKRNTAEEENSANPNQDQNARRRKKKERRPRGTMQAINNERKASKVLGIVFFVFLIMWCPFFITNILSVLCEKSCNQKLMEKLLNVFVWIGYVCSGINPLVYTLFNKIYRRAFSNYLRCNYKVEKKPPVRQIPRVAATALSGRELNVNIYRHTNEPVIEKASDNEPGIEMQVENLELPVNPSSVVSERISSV
Chain of UniProt P21554 (whole entry, looked up): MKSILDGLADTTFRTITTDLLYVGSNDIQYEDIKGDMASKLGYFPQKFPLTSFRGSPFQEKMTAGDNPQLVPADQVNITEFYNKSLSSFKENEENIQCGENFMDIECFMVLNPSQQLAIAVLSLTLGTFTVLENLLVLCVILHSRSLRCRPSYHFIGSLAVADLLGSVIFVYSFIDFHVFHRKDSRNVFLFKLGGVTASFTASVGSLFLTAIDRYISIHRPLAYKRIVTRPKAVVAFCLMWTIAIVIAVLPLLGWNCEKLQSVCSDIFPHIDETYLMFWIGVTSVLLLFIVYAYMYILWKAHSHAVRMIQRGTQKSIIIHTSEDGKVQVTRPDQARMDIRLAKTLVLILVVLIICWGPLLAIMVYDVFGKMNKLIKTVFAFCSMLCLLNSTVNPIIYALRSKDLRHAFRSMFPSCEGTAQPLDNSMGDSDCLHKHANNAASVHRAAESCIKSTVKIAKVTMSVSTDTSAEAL
Chain of UniProt P21917 (whole entry, looked up): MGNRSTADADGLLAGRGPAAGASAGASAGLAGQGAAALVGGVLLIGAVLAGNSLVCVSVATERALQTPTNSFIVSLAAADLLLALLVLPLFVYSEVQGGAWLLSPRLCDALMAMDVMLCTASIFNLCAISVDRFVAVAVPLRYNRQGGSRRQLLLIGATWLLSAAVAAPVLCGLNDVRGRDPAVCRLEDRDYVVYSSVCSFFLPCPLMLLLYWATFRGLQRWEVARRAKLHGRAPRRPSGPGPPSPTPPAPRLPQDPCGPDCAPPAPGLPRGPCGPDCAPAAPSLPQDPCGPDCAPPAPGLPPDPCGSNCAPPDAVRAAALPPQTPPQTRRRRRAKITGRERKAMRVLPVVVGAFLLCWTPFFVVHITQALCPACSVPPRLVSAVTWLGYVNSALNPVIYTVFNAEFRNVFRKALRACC
Chain of UniProt Q2YWP9 (whole entry, looked up): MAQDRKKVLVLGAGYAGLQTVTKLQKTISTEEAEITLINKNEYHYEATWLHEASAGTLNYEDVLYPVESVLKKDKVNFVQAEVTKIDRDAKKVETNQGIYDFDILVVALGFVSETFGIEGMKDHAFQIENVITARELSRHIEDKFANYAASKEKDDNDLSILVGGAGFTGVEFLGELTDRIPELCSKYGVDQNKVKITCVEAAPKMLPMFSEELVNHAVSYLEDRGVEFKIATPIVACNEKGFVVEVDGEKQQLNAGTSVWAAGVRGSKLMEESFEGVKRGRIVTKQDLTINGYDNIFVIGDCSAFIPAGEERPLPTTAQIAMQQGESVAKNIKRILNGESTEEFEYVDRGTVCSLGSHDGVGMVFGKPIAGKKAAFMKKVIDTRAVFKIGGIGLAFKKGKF

Compound | tested on | assay | system | conditions | scale | endpoint | value
CCCCCCCCCCCCNS(=O)(=O)C(F)(F)F | Epoxide hydrolase 1 (EPHX1, Homo sapiens, UniProt P07099) | enzyme activity, inhibitor, fluorescence | – | 100 µM | – | inhibition | 65%
CC(C)(C)c1cnc(CSc2cnc(NC(=O)C3CCNCC3)s2)o1 | CDK6 (Homo sapiens, UniProt Q00534) | probe labeling, KiNativ live-cell profiling | MOLT-4 CRBN knockout | 0.25 µM | – | inhibition | 73.8%
CCS(=O)(=O)CC(C)(O)[C@H]1CCc2c(c(C)cc(O)c(=O)c2O)C1 (mixture of isomers) | Gag-Pol polyprotein, RT RNase H domain (gag-pol, Human immunodeficiency virus type 1 group M subtype B, UniProt P04585) | RNase H PPT cleavage, inhibitor | – | 20 µM | – | inhibition | ~100%
COC(=O)c1ccc(Nc2ccc3c(c2)C(c2ccccc2F)=NC(C)C(=O)N3)cc1 (stereo not drawn) | ADRA2C | ligand displacement, radioligand | – | 10 µM | – | inhibition | 65%
O=C(NC(c1ccccc1)c1ccccc1)c1coc(-c2ccccc2O)n1 | HDAC1 | enzyme activity, inhibitor | – | 20 µM | – | inhibition | > 50%
COc1ccc(/C=N/NC(=O)Cn2cnc3c2c(=O)n(C)c(=O)n3C)cc1 | ACHE | enzyme activity, inhibitor, Ellman | – | 25 µM | – | inhibition | 55.4%
CCN1C(=O)C=CC1=O | Ace (Anopheles gambiae, UniProt Q869C3) | enzyme activity | – | 100 µM, 30 min, before dilution | – | inhibition | 45 ± 2%
CN(C)CCCN1c2ccccc2Sc2ccc(Cl)cc21 | Type II NADH:quinone oxidoreductase (Staphylococcus aureus, UniProt Q2YWP9) | NDH-2 enzyme activity | E. coli membranes | 50 µM, 37 °C, together with: 150 µM NADH | – | inhibition | 87 ± 9%
CC1N=C(c2ccccc2F)c2cc(N3CCCCC3)ccc2NC1=O (stereo not drawn) | ADRA2C | ligand displacement, radioligand | – | 10 µM | – | inhibition | 31%
Cc1n[nH]c(C)c1S(=O)(=O)N1CCC(C(=O)N2CCn3c2nc2ccccc23)CC1 | lacZ | – | – | concentration not given | – | inhibition | 40%
Cc1ccc(/C=C/C(=O)c2ccc(OCc3ccccc3)cc2)cc1 | ACHE | enzyme activity, inhibitor | – | concentration not given | – | inhibition | 84.3%
CCc1ccccc1Nc1ccc2c(c1)C(c1ccccc1F)=NC(C)C(=O)N2 (stereo not drawn) | ADRA2C | ligand displacement, radioligand | – | 10 µM | – | inhibition | -11%
C/C=C(/C)C(=O)O[C@H]1C(C)=C2[C@H]([C@@H]1OC(=O)CCCCCCC)[C@@](C)(OC(C)=O)C[C@H](OC(=O)CCC)[C@@]1(O)[C@H]2OC(=O)[C@@]1(C)O | ATP2A1 (Oryctolagus cuniculus, UniProt P04191) | Ca2+-ATPase activity, inhibitor | rabbit muscle microsomes | 20 µM | – | inhibition | > 90%
CC1N=C(c2ccccc2F)c2cc(N3CCOCC3)ccc2NC1=O (stereo not drawn) | ADRA2C | ligand displacement, radioligand | – | 10 µM | – | inhibition | 30%
CN[C@@](C)(C[18F])C(=O)O | – | – | SCID mouse A549 xenograft, lung | 120 min, post injection | – | tissue uptake | 1.7 ± 0.2 %ID/g
CC1N=C(c2ccccc2F)c2cc(Nc3ccc(O)cc3)ccc2NC1=O (stereo not drawn) | ADRA2C | ligand displacement, radioligand | – | 10 µM | – | inhibition | 29%
O=C(O)[C@@H]1CCCN1C(=O)OCC1c2ccccc2-c2ccccc21 | BCHE | enzyme activity, Ellman method | – | 200 µM, 2% methanol | – | inhibition | ≤ 10%
Cc1nc2sccn2c(=O)c1CCN1CCC(=C(c2ccccc2)c2ccc(F)cc2)CC1 | HTR2C | agonist response, antagonist | – | 10 µM, together with: reference agonist at EC90 | – | inhibition | 99%
O=C(O)C(=O)CBr | SLC5A8 (Homo sapiens, UniProt Q8N695) | nicotinate uptake | HRPE expressing SLC5A8 | 1 mM, 15 min, human, together with: [14C]nicotinate 15 µM | – | inhibition | 96%
CC1N=C(c2ccccc2F)c2cc(Nc3ccccc3C#N)ccc2NC1=O (stereo not drawn) | ADRA2C | ligand displacement, radioligand | – | 10 µM | – | inhibition | 34%
C=C(C)[C@H](CC=C(C)C)Cc1c(O)cc(OC)c2c1O[C@H](c1ccc(O)cc1O)CC2=O | DRD4 (Homo sapiens, UniProt P21917) | – | – | 50 µM | – | inhibition | > 70%
O=C(c1ccc2c(c1)c1ccccc1n2CCN1CCOCC1)c1ccnc2ccccc12 | CNR1 (Homo sapiens, UniProt P21554) | forskolin-stimulated cAMP, BRET biosensor | HEK293 expressing human CB1 | 10 µM | – | inhibition | ~15%
Cn1c(=O)c2c(ncn2CC(=O)N/N=C2/C(=O)Nc3ccccc32)n(C)c1=O | ACHE | enzyme activity, inhibitor, Ellman | – | 25 µM | – | inhibition | > 75%
O=[N+]([O-])c1ccc(/N=N/c2ccc3nc(-c4ccccc4)c(I)c(-c4ccccc4)c3c2)cc1 | BCHE | enzyme activity, inhibitor | – | 100 µM | – | inhibition | 54.8%
Cc1cc2c(cc1Cl)N(C(=O)Nc1ccc(Oc3cccnc3C)nc1)CC2 | HTR2C | 5-HT-stimulated IP-1 formation, antagonist | cells expressing HTR2C | 1 µM, together with: 5-HT 100 nM | reference: maximal inhibition | inhibition | 86.5%
O=c1c2ccccc2[se]n1-c1ccccc1 | lacZ | – | – | concentration not given | – | inhibition | 40%
Cc1cccc(Nc2ccc3c(c2)C(c2ccccc2F)=NC(C)C(=O)N3)c1 (stereo not drawn) | ADRA2C | ligand displacement, radioligand | – | 10 µM | – | inhibition | 69%
Cn1c(=O)c2c(ncn2CC(=O)O)n(C)c1=O | ACHE | enzyme activity, inhibitor, Ellman | – | 25 µM | – | inhibition | 6.5%
O=C(O)c1ccc(CNC(=O)c2coc(-c3ccccc3O)n2)cc1 | HDAC1 | enzyme activity, inhibitor | – | 20 µM | – | inhibition | > 50%
CSc1ccc(Nc2ccc3c(c2)C(c2ccccc2F)=NC(C)C(=O)N3)cc1 (stereo not drawn) | ADRA2C | ligand displacement, radioligand | – | 10 µM | – | inhibition | 69%

Some of these lines once more:
Compound | tested on | assay | system | conditions | scale | endpoint | value
Cc1nc2sccn2c(=O)c1CCN1CCC(=C(c2ccccc2)c2ccc(F)cc2)CC1 | HTR2C | agonist response, antagonist | – | 10 µM, together with: reference agonist at EC90 | – | inhibition | 99%
O=C(NC(c1ccccc1)c1ccccc1)c1coc(-c2ccccc2O)n1 | HDAC1 | enzyme activity, inhibitor | – | 20 µM | – | inhibition | > 50%
O=C(O)C(=O)CBr | SLC5A8 (Homo sapiens, UniProt Q8N695) | nicotinate uptake | HRPE expressing SLC5A8 | 1 mM, 15 min, human, together with: [14C]nicotinate 15 µM | – | inhibition | 96%
CC1N=C(c2ccccc2F)c2cc(Nc3ccccc3C#N)ccc2NC1=O (stereo not drawn) | ADRA2C | ligand displacement, radioligand | – | 10 µM | – | inhibition | 34%
CN(C)CCCN1c2ccccc2Sc2ccc(Cl)cc21 | Type II NADH:quinone oxidoreductase (Staphylococcus aureus, UniProt Q2YWP9) | NDH-2 enzyme activity | E. coli membranes | 50 µM, 37 °C, together with: 150 µM NADH | – | inhibition | 87 ± 9%
